Experimental data from different studies.
Protocols differ between the studies behind these lines. ± marks the error that the study gave.
Sequence of UniProt P21729 (whole entry, looked up): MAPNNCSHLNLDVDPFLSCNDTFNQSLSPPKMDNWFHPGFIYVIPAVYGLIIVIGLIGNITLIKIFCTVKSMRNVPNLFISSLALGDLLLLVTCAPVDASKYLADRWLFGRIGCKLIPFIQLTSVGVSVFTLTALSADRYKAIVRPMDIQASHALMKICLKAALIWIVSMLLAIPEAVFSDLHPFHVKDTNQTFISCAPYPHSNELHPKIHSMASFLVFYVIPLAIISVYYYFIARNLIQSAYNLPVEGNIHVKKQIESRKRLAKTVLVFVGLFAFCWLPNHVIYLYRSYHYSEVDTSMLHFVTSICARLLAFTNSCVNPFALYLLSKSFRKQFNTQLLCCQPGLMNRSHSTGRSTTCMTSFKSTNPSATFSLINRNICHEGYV

SMILES | target or system | assay | test system | setting | quantity | value
COc1ccc(C)cc1NC(=O)OC1CC2CCCC(C1)N2Cc1ccc(CC[18F])cc1 (stereo not shown) | – | – | BALB/c mice, EMT6 tumour, muscle | 5 min | tissue uptake | 4.6 ± 0.76 %ID/g
N=C(N)NCc1ccc(C(=O)NCCCC[C@H](NC(=O)N[C@@H](CCC(=O)O)C(=O)O)C(=O)O)cc1[131I] | – | – | SCID mouse, PC-3 xenografts, brain | 1 h | tissue uptake | 0.11 ± 0.07 %ID/g
C=Cc1cc(O)cc2nc(-c3ccc(O)c([76Br])c3)oc12 | – | – | female C57BL/6 mouse, lung | 1 h, high dose, together with: estradiol 20 µg blocking | tissue uptake | 0.34 ± 0.11 %ID/g
CCCC[C@H](NC(=O)CN1CCC(NC(=O)CN2CCC(NC(=O)CN3CCN(CC(=O)O)CCN(CC(=O)O)CCN(CC(=O)O)CC3)CC2)CC1)C(=O)N[C@H]1CC(=O)NCCCC[C@@H](C(N)=O)NC(=O)[C@H](Cc2c[nH]c3ccccc23)NC(=O)[C@H](CCCNC(=N)N)NC(=O)[C@@H](Cc2ccccc2)NC(=O)[C@H](Cc2c[nH]cn2)NC1=O [gallium-68 labelled] | – | – | C57BL/6J mice male B16-F10 tumour, fat | 1 h post injection, unblocked | tissue uptake | 0.1 %ID/g
CCC(=O)N(C)c1ccc(Cl)c(Cl)c1 | Escherichia coli | Ames test | WP2 uvrA | 1.00 mg/plate, without S9 activation | revertants | 32 ± 2.1 revertants/plate
COc1ccc(CNc2nc(N3CCC[C@H]3CO)ncc2C(=O)NN)cc1Cl | Salmonella typhimurium | – | TA100 | 1000 µg/plate, 48 h | revertant count | 122 ± 11
CN[C@](C)(C[18F])C(=O)O | – | – | SCID mouse A549 xenograft, brain | 120 min, post injection | tissue uptake | 0.2 ± 0.02 %ID/g
C[C@@](O)(C(F)F)[C@H](NC(=O)c1ccc(C#CC#CC2CC2)cc1)C(=O)NO | – | – | dog, plasma | intravenous, 100 mg/kg | half-life | 1.1 h
O=C(c1ccc(F)cc1)C1CCN(C2Cc3c(cccc3OCC[18F])CC2O)CC1 (single isomer, unassigned; (-)) | – | – | Sprague-Dawley rat, male, lung | intravenous, dose not given, 120 min | tissue uptake | 0.551 ± 0.07 %ID/g
COc1cc2ccnc(Cc3ccc(O[11CH3])c(OC)c3)c2cc1OC | – | – | Sprague-Dawley rats, lung | intravenous, 0.08333 h | tissue uptake | 0.323 ± 0.048 %ID/g
CCNc1cc2[o+]c3cc(NCC)c(C)cc3c(-c3ccccc3C(=O)OCCOCC[18F])c2cc1C | – | – | rat, thyroid/trachea | 15 min | tissue uptake | 1.23 ± 0.47 %ID/g
CCCNC(=O)[C@H](CC(C)C)NC(=O)[C@H](Cc1c[nH]cn1)NC(=O)CNC(=O)[C@@H](NC(=O)[C@H](C)NC(=O)[C@H](Cc1c[nH]c2ccccc12)NC(=O)[C@H](CCC(N)=O)NC(=O)[C@@H](Cc1ccccc1)NC(=O)CCCCCNC(=O)CN1CCN(CC(=O)O)CCN(CC(=O)O)CCN(CC(=O)O)CC1)C(C)C [indium-111 labelled] | Gastrin-releasing peptide receptor (Mus musculus, UniProt P21729) | – | CF-1 mice, carcass | intravenous, 0.185 MBq, 1 h | tissue uptake | 0.16 ± 0.01 %ID/g
N=C(N)NCc1ccc(C(=O)NCCCC[C@H](NC(=O)CCCCCCC(=O)NCCCC[C@H](NC(=O)N[C@@H](CCC(=O)O)C(=O)O)C(=O)O)C(=O)O)cc1[131I] | – | – | SCID mouse, PC-3 xenografts, lungs | 1 h | tissue uptake | 1.39 ± 0.36 %ID/g
